Results of several laboratories.
Each line is one published result; not all experiments were run side by side. Numbers after ± are the reported error.

For O=C(O)C[C@H](O)C[C@H](O)/C=C/c1c(C2CC2)nc2ccccc2c1-c1ccc(F)cc1, the Cmax was 0.0316 µM (FVB wild-type mouse, plasma; oral, 5 mg/kg).
With CCCc1cc(C)[nH]c(=O)c1CNC(=O)c1cc(-c2ccc(N3CCN(C(C)C)CC3)nc2)cc2c1cnn2C(C)C the Cmax was 9.7 to 11.8 µM (Swiss albino mouse, male; intraperitoneal, 150 mg/kg).
For CC(C)n1ncc2c(C(=O)NCC3(C)CNC3)cc(C3CC3)nc21, the Cmax was 7 µM (female BALB/c mouse, plasma; intraperitoneal, 50 mg/kg).
Cc1cc(N[C@H]2CCc3ccc(Cl)cc3C2)n2nc(C(C)(F)F)nc2n1 has a Cmax of 0.77 µM (NSG mouse, whole blood; oral, 10 mg/kg).
CC[C@H](C)[C@@H]1NC(=O)[C@@](C)(NC(=O)[C@H](CCCNC(=N)N)NC(=O)[C@H](CC(C)C)NC(=O)[C@@H](NC(=O)[C@H](CCC(N)=O)NC(=O)[C@H](CC(C)C)NC(C)=O)[C@@H](C)O)CCCC=CCCC[C@@](C)(C(=O)N[C@@H](CC(C)C)C(=O)N[C@@H](Cc2ccc3ccccc3c2)C(N)=O)NC(=O)[C@H](CCCNC(=N)N)NC(=O)[C@H](CCC(N)=O)NC1=O gave a Cmax of 11400 ng/mL (BALB/c mouse; intraperitoneal, 10 mg/kg once daily, day 14, dosed for 14 days).
With O=C(NCCN1CCCC1)c1cc(-c2ccc(CN3CCOCC3)cc2)nc2ccc(F)cc12 the Cmax was 0.031 µM (NMRI mouse Plasmodium berghei-infected, blood; oral, 0.6 mg/kg, monotherapy).
The Cmax of O=C1CCC(N2Cc3cc(CO)c(F)cc3C2=O)C(=O)N1 (stereo not drawn) is reported as 33.8 ± 17.6 ng/mL (male CD-1 mouse, plasma; oral, 10 mg/kg of parent drug).
The Cmax of CC1(CNc2nc(-c3cccs3)nc(Cl)c2-c2c(F)cc(N)cc2F)COC1 is reported as 247 ng/mL (mouse, plasma; intraperitoneal, 2.5 mg/kg, cassette dosing).
CC1(C)c2nc(-c3ccc(F)cc3)c(Nc3ccc(F)cc3)n2CCN1C(=O)CN has a Cmax of 0.122 µM (NMRI mouse Plasmodium berghei-infected, blood; oral, 1 mg/kg, monotherapy).
Cc1ccc2c(c1)C(=O)[C@]1(O)CCN(c3ccc4nc(C)ccc4c3)C1=N2.Cl gave a Cmax of 9.1 ± 1 µM (mouse, brain; subcutaneous, 5 mg/kg).
For CN(C(=O)n1cnc(-c2ccc[n+]([O-])c2)c1)C1CCCCC1, the Cmax was 3620 ± 437 ng/mL (CD1 mouse, male, plasma; oral, 10 mg/kg, 1 h).
With COc1ccc(C[C@H](NC(=O)[C@H](C)NC(=O)CN2CCOCC2)C(=O)N[C@@H](Cc2ccccc2)C(=O)C2(C)CO2)cc1 (stereo in doubt) the Cmax was 73.8 µM (BALB/c mouse; intravenous, 20 mg/kg single).
For CNC(=O)c1cc(Oc2ccc(NC(=O)Nc3ccc(Cl)c(C(F)(F)F)c3)cc2)cc[n+]1[O-], the Cmax was 38 ng/mL (mouse, Oatp1b2 knockout, plasma; oral, 10 mg/kg, without rifampin, geometric mean).
CN1CCC[C@H](CN2c3ccccc3Sc3ccccc32)C1.Cl has a Cmax of 752 ng/g (fasted female ICR mouse, heart; oral, 16 mg/kg).
For C=CCn1c(=O)c2cnc(Nc3ccc(N4CCN(C)CC4)cc3)nc2n1-c1ccc2c(n1)[C@@](O)(CC)CC2, the Cmax was 5090 ng/mL (female NOD/SCID mouse OVCAR-3 xenograft, plasma; oral, 100 mg/kg once daily, :4).
For O=c1c2cc(Cl)c(CO)cc2[nH]c(=S)n1Cc1cccnc1, the Cmax was 68 ng/mL (mouse; oral, 50 mg/kg).
With Cc1cc(NC2CCc3cc(Cl)ccc3C2)n2nc(C(C)(F)F)nc2n1 (stereo not drawn) the Cmax was 1.19 µM (NSG mouse, whole blood; oral, 10 mg/kg).
CCOC(=O)C1=C(CN2CCC[C@@H]2C(=O)Nc2ccc(B(O)O)cc2)NC(c2nccs2)=N[C@H]1c1ccc(F)cc1Br gave a Cmax of 317 ± 18.5 ng/mL (ICR mouse, plasma; oral, 10 mg/kg).
With CC(C)c1nc(CN(C)C(=O)N[C@H](C(=O)N[C@@H](Cc2ccccc2)C[C@H](O)[C@H](Cc2ccccc2)NC(=O)OCc2cncs2)C(C)C)cs1 the Cmax was roughly 5 µM (mouse, young pups, brain; 15 mg/kg, together with: elacridar).
For CN1CCCC1CCNS(=O)(=O)c1ccc2c(c1)CN(CC1CCCCC1)CC2 (stereo not drawn), the Cmax was 135 ng/mL (mouse C57BL/6J male, plasma; oral, 10 mg/kg, single dose in methylcellulose/Tween).
For COc1cc([C@@H]2Oc3c(O)cc([C@H]4Oc5cc(O)cc(O)c5C(=O)[C@@H]4O)cc3[C@H]2CO)ccc1O, Cmax read “not detected” (FVB wild-type mouse, plasma; oral gavage, 500 mg/kg silymarin).
With CC(C)N1Cc2cc(C(F)(F)F)ncc2C2=CN=C(NCc3c(F)ccc4c3CCO4)N3C=NC(C1=O)C23 (stereo not drawn) the Cmax was 9.63 µM (CD1 mouse, male, plasma; oral, 10 mg/kg).
The Cmax of CN[C@H](CC(C)C)C(=O)N[C@H]1C(=O)N[C@@H](CC(N)=O)C(=O)N[C@H]2C(=O)N[C@H]3C(=O)N[C@H](C(=O)N[C@H](C(=O)O)c4cc(O)cc(O)c4-c4cc3ccc4O)[C@H](O)c3ccc(c(Cl)c3)Oc3cc2cc(c3O[C@@H]2O[C@H](CO)[C@@H](O)[C@H](O)[C@H]2O[C@H]2C[C@](C)(N)[C@H](O)[C@H](C)O2)Oc2ccc(cc2Cl)[C@H]1O is reported as 1.1e+07 ng/g (C57BL/6N mouse H2, faeces, wet weight; po, 0.5 mL, 20 mg/mL solution).
For CN(C)C(=O)c1cc2cnc(Nc3ccc(-c4ccc5c(=O)cc(N6CCOCC6)oc5c4)cc3)nc2n1C1CCCC1.Cl, the Cmax was 3310 ± 1270 ng/mL (BALB/c mouse, plasma; oral, 20 mg/kg).
The Cmax of Cc1ccc(CCC(=O)Nc2nnc(S(N)(=O)=O)s2)cc1 is reported as 16.9 µM (BALB/c mouse, male, plasma; oral, 20 mg/kg).
CNC(=O)c1cc(Oc2ccc(NC(=O)N(c3ccc(Cl)c(C(F)(F)F)c3)[C@@H]3O[C@H](C(=O)O)[C@@H](O)[C@H](O)[C@H]3O)cc2)ccn1 gave a Cmax of 7750 ng/mL (mouse, Oatp1b2 knockout, plasma; oral, 10 mg/kg, without rifampin, geometric mean).
For Cc1cc(NC2Cc3cc(F)c(F)cc3C2)n2nc(C(C)(F)F)nc2n1, the Cmax was 10.3 µM (NSG mouse, whole blood; oral, 10 mg/kg).

A few entries again:
CN1CCC[C@H](CN2c3ccccc3Sc3ccccc32)C1.Cl has a Cmax of 752 ng/g (fasted female ICR mouse, heart; oral, 16 mg/kg).
For CNC(=O)c1cc(Oc2ccc(NC(=O)Nc3ccc(Cl)c(C(F)(F)F)c3)cc2)cc[n+]1[O-], the Cmax was 38 ng/mL (mouse, Oatp1b2 knockout, plasma; oral, 10 mg/kg, without rifampin, geometric mean).
Cc1cc(N[C@H]2CCc3ccc(Cl)cc3C2)n2nc(C(C)(F)F)nc2n1 has a Cmax of 0.77 µM (NSG mouse, whole blood; oral, 10 mg/kg).
